Assay results pooled from the literature.
A part holds a random share of what one study measured. Positions count from the first letter of the parent shown.

Study 1 — target: ATF5, bZIP domain (human); method: DHFR protein complementation; medium: yeast; relative to: wild-type JUN-FOS pair; reading: higher = stronger binding; quantity: binding fitness
Setting: single substitutions, most at no-binding floor
Parent: JUN, bZIP domain (human); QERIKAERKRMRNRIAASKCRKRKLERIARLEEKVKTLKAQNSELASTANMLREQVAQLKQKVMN; partner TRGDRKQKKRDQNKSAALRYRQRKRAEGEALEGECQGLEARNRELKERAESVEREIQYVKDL
R30E: -1.16 natural log
R30A: -1.47 natural log
M51L: -1.29 natural log
K36V: -1.39 natural log
S47D: -1.49 natural log
K39E: -1.32 natural log

Study 2 — method: RNAcompete; molecule type: RNA; medium: in vitro; concentration: 20 nM; setting: 7-mer, probes averaged, single round; relative to: mean of 7-mers; reading: higher = stronger binding; quantity: 7-mer Z-score
Target: PABPC1L2, full length, GST fusion (mouse, UniProt A0ABA7IW68)
Target sequence (chain): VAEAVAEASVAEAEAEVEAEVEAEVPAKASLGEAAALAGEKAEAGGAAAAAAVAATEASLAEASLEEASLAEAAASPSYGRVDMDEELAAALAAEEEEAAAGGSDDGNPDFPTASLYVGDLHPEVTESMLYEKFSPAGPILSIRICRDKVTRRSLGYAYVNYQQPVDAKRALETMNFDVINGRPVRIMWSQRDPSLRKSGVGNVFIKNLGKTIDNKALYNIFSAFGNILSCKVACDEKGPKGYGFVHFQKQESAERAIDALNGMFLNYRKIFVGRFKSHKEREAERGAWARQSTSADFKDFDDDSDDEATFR
UCCCCUG: -0.385
GGUAAUG: 0.0352
CAUUUAC: 0.0859
CUACCCG: -0.295
GGUGCCG: -0.0844

Study 3 — target: CCNE1, cyclin fold, Cln2 fusion (human); method: yeast growth competition, sequencing; medium: yeast; setting: strong parent motif; relative to: not given; reading: higher = stronger binding; quantity: normalised enrichment score
Parent: BRCA2 docking peptide (human); PSIKRNLLNEFDR
F11G: 0.8
F11P: -0.463
N9S: 1.94
N6M: 0.419
N6F: 1.16
P1N: 2.1

Further values, each from its own experiment
PhoQ, residues 284 288 289 292 302 303 HSYLQF
fold induction (PhoP, residues 12 14 15 18 19 LYHSL (Escherichia coli, UniProt P23836); Sort-seq, measured: YFP reporter; E. coli; PhoQ-PhoP variant library, with: 10 µM Mg2+; relative to: high Mg2+ state, higher = stronger signaling): 10.9

A few entries again (study 3):
F11G: 0.8
F11P: -0.463
N6F: 1.16
